Published values from different studies.
Parts stem from different laboratories: compare values within a part only.

Block 1
Cell line: HEK-293T
Read-out: pseudovirus infection
Technique: FDA-approved drug library screen
Organism: VSV pseudotyped with SARS-CoV-2 spike
Concentration: 10 µM
Time: 16 h
Reference: vehicle-treated
Structure (SMILES)	GFP-positive cells
CC[N+](CC)(CC)CCOc1cccc(OCC[N+](CC)(CC)CC)c1OCC[N+](CC)(CC)CC	68.3%
CN(C)CCC=C1c2ccccc2CCc2ccccc21	35.4%
CC1=C(/C=C/C(C)=C/C=C/C(C)=C/C(=O)O)C(C)(C)CCC1	80.6%
NC(=O)c1cccnc1	69.6%

Block 2
Target: RNA binding protein fox-1 homolog 2, RRM domain, GST-SBP tag (RBFOX2, Homo sapiens, UniProt O43251-10, residues 100-194)
Technique: RNA Bind-n-Seq
Form: RNA
Sample: in vitro
Concentration: 365 nM
Setting: natural RNA segment, single round, ends assumed
Reference: no-protein control
Direction: higher = stronger binding
Constant ends, left off below: GGGAGUUCUACAGUCCGACGAUC … UGGAAUUCUCGGGUGCCAA
Residues (chain): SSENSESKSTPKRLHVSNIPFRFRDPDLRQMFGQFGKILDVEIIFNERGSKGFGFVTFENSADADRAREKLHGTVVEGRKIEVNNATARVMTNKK
Sequence	RBNS enrichment (R)
AAAUAUAUAAUGCAUUUGCAGUUGUACAUGGGCUAGUUAUAUCAUUUUAGGUGUAAUUAUGACCUGGCUAUUAUUUUCAUUUGGAAAUUAAGCAUGGCAUAAGAAGAUAU	0.721
UAGUUGAUCACUCUGAGGAGGUGGGUAGCAAGAUGAAUUAGGAGGUCAAGGUCACUGAGAGGAAUUUGUUUAGAUGCCCAGUUUAGAGUGAAUAGAUAUCUGCGGGGAAC	0.636
GGUUGGUGUGGCCACCUUUCCCUUUGUCCAAGACUCCACAUGGAAGGCAUUUGAGCUCGACCUCCGAAAAGCUACCCAGCAAAGAGCAGUCUGUGCCUCUGAGCAGACCG	0.311
UUGUGCCCGAUGUCUGGCUCCCCUGCAGGAGGGAGGCUCCAGGGUAAGACAGGGCUGGCAGGAGCAGACUGCCUCAGCCCAUGUGCCCUGCCGGCCAGGGCGUGGGCUCC	0.497
CCAGUCAAGAAGAAAAAGGUUUGCAUUCUCACAUUGCCAGGAUGAUAAGUUCCUUUCCUUUUCUUUAAAGAAGUUGAAGUUUAGGAAUCCUUUGGUGCCAACUGGUGUUU	0.911
CUGCCCCAGUCAAAAUCAUCUUGUGCCAAAAAAUUAGAGGUUUGAUUCAUCGUGUCCCUGUUUGAACGUUUAGCACAAAAGUCUUAAUAGCACAACACAAAUUCCAUCCA	0.708
UUUGCUUUGUUUAAGCAUCACAUUAAAGUUAAACUGUAUUUUAUGUUAUUUAUAGCUGUAGGUUUUCUGUGUUUAGCUAUUUAAUACUAAUUUUCCAUAAGCUAUUUUGG	0.705
UUAUUGUAUGGCAUAGGACUGGCAUUAUAUAGCAGAAAUCAACUACUGUACAAUUUCUUGGGGUUAACCAUCUUUAGUUAAAUGGAAUUUUAAUUUAAAUGACGCUUUGC	0.507

Block 3
Target: Replicase polyprotein 1ab, polymerase (rep, Severe acute respiratory syndrome coronavirus 2, UniProt P0DTD1)
Read-out: enzyme activity
Mode: inhibitor
Concentration: 20 µM
Structure (SMILES)	inhibition [%]
CCC(=O)OCC(=O)[C@@]1(OC(=O)CC)[C@H](C)C[C@H]2[C@H]3[C@H]([C@@H](O)C[C@@]21C)[C@@]1(C)C=CC(=O)C=C1C[C@H]3Cl	-0.42
Cc1cccc([C@H](C)c2c[nH]cn2)c1C	-6.89
COc1cc(NC(=O)c2ccccn2)ccc1Cl	-14
CNc1nc(-c2ccc3c(N)n[nH]c3c2)cc(N2C[C@@H](C(=O)NC3CCCCC3)CC[C@H]2C)n1	-6.83
CCOC(=O)[C@@H](C)Oc1ccc(Oc2nc3ccc(Cl)cc3o2)cc1	-4.46
COc1ccc(CCCOC(Cn2ccnc2)c2ccc(OC)cc2)cc1 (stereo not shown)	-17.6
Cc1cn([C@H]2C=C[C@@H](CO)O2)c(=O)[nH]c1=O	-5.5
COc1cc2c(cc1OC)[C@@H]1Cc3ccc(OC)c(OC)c3CN1CC2	-2.03
CC(C)c1noc(N2CCC(COc3ccc(-c4ccc(S(C)(=O)=O)cc4)nc3)CC2)n1	0.31
CC(=O)Nc1ccc(C(=O)O)cc1	13
C[C@H](NC[C@H](O)CP(=O)(O)CC1CCCCC1)c1ccc(Cl)c(Cl)c1	-10
CCOc1cccc(NC(=O)c2ccc(N3CCCC3)c(C(F)(F)F)c2)c1	-1.37
N#Cc1ccnc(N2C(=O)CC[C@H]2C(=O)N(c2cncc(F)c2)[C@H](C(=O)NC2CC(F)(F)C2)c2ccccc2Cl)c1	-6.16
Nc1nncs1	1.23
Cc1nc2cnc3ccc(C#Cc4cccnc4)cc3c2n1-c1ccc(C(C)(C)C#N)cc1	0.87
CCOC(=O)C1=CCCC[C@H]1S(=O)(=O)Nc1ccc(F)cc1Cl	-0.91
CCOc1cncc(/C=C/CCNC)c1	-6.85

Block 4
Target: Sal-like protein 4, full length isoform B (SALL4, Homo sapiens, UniProt Q9UJQ4-2, residues 1-616)
Technique: universal PBM
Form: double-stranded DNA, one strand shown
Sample: in vitro
Concentration: not given
Setting: 8-mer, flanks averaged, mean of replicates
Direction: higher = stronger binding
Sequence	E-score
AGTTAGCG	-0.126
CAGTGGCG	-0.324
ATAAATCG	0.216
ACAACGAC	0.0402
ACTGAAGA	0.00874
TGATCAAA	0.0513
CAGCAGTA	-0.0193
AACCCCCA	-0.103

For quick reference, copied from above (block 3):
Structure (SMILES)	inhibition [%]
C[C@H](NC[C@H](O)CP(=O)(O)CC1CCCCC1)c1ccc(Cl)c(Cl)c1	-10
COc1cc(NC(=O)c2ccccn2)ccc1Cl	-14
N#Cc1ccnc(N2C(=O)CC[C@H]2C(=O)N(c2cncc(F)c2)[C@H](C(=O)NC2CC(F)(F)C2)c2ccccc2Cl)c1	-6.16
